Assay results of several laboratories.
Lines come from different studies, so protocols differ. ± marks the error that the study gave.
Cell line: MDA-MB-468

Structure (SMILES) | test | setting | how to read | measurement | result
Cc1ccc(-c2nc(-c3cccnc3)[nH]c2-c2ccc(C)cc2)cc1 | cell growth or viability, SRB | 48 h |  | IC50 | 50 µM
Cc1cc(C)nc(NC(=S)N2CCN(c3ccc(C(F)(F)F)cn3)CC2)c1 |  | concentration not given, with: U-13C-glutamine |  | M+5 α-ketoglutarate production | decreased
CC(=O)OC[C@H]1O[C@@H](Sc2sc(C(=O)c3ccc(Br)cc3)c(N)c2-c2nc3ccccc3s2)[C@H](OC(C)=O)[C@@H](OC(C)=O)[C@H]1OC(C)=O | SRB | 10 µM, 48 h | relative to: untreated | growth | 91.9%
Cc1cc(C)nc(NC(=S)N2CCN(Cc3ccc(C(F)(F)F)cc3)CC2)c1 |  | concentration not given, 4 h |  | glucose concentration | no effect
CCC(=C(c1ccc(Cl)cc1)c1ccc(OCCCN(C)C)cc1)c1ccc(OC)cc1 | cell growth or viability, SRB |  |  | GI50 | 1.06 µM
CCCCCCCCCCCCn1c(-c2cccnc2)nc(-c2ccc(C)cc2)c1-c1ccc(C)cc1 | cell growth or viability, SRB | 48 h |  | IC50 | > 100 µM
N=C(N)NCCC[C@H](NC(=O)[C@H](Cc1c[nH]c2ccccc12)NC(=O)[C@H](CCC(N)=O)NC(=O)[C@H](Cc1c[nH]c2ccccc12)NC(=O)[C@H](CCCNC(=N)N)NC(=O)[C@H](Cc1c[nH]c2ccccc12)NC(=O)[C@H](CCC(N)=O)NC(=O)[C@H](Cc1c[nH]c2ccccc12)NC(=O)[C@@H](N)CCCNC(=N)N)C(N)=O | MTT | concentration not given, 24 h, 37 °C, 5% FBS | relative to: untreated cells | viability | 27 ± 4%
COc1ccc2c(c1)CCn1c[n+]3c(c1-2)-c1ccc(OC)cc1CC3 | Western blot, measured: PERK, ATF6, IRE1α | concentration not given, 24 h |  | protein level | increased
c1ccc(-c2nc(-c3cccnc3)[nH]c2-c2ccccc2)cc1 | cell growth or viability, SRB | 48 h |  | IC50 | 62.7 µM
CC(=C(c1ccc(O)cc1)c1ccc(Cl)cc1)c1ccc(Cl)cc1 | cell growth or viability, SRB |  |  | GI50 | 0.67 µM
CC(=O)N[C@@H](Cc1ccc(O)cc1)CN(CC(=O)N[C@@H](CCCCN)CN(CC(=O)N[C@@H](Cc1ccccc1)CN(CC(=O)N[C@H]1CCCCNc2c(F)c(F)c(c(F)c2F)S(=O)(=O)c2c(F)c(F)c(c(F)c2F)NCCCC[C@@H](CN(CC(=O)N[C@@H](C)CN(CC(N)=O)S(C)(=O)=O)S(C)(=O)=O)NC(=O)CN(S(=O)(=O)CC(C)C)C[C@H](Cc2ccccc2)NC(=O)CN(S(=O)(=O)CCN)C1)S(=O)(=O)c1ccc(Cl)cc1)S(=O)(=O)CCN)S(C)(=O)=O | cell growth or viability, CCK-8 | 72 h |  | GI50 | 10.1 µM
CCCCCCCCCCCCCCCCn1c(-c2cccnc2)nc(-c2ccc(C)cc2)c1-c1ccc(C)cc1 | cell growth or viability, SRB | 24 h |  | IC50 | > 100 µM
CC(C)Cn1cc(-c2ccnc(Nc3ccc(N4CCN(CCCCCCC(=O)NO)CC4)cc3)n2)nn1 | cell growth or viability, SRB | 72 h |  | IC50 | 1.61 µM
C[C@H](NC(=O)[C@H](Cc1c[nH]c2ccccc12)NC(=O)[C@@H](N)CCCNC(=N)N)C(=O)N[C@@H](Cc1c[nH]c2ccccc12)C(=O)N[C@@H](CCCNC(=N)N)C(=O)N[C@@H](Cc1c[nH]c2ccccc12)C(=O)N[C@@H](CCC(N)=O)C(=O)N[C@@H](Cc1c[nH]c2ccccc12)C(=O)N[C@@H](CCCNC(=N)N)C(N)=O | MTT | concentration not given, 2 h, 37 °C, 5% FBS | relative to: untreated cells | viability | 45 ± 7%
CC(=O)OC[C@H]1O[C@@H](Sc2sc(C(=O)c3ccc(C)cc3)c(N)c2-c2nc3ccccc3s2)[C@H](OC(C)=O)[C@@H](OC(C)=O)[C@@H]1OC(C)=O | SRB | 10 µM, 48 h | relative to: untreated | growth | 73.6%
CCCCCCCCC=CCCCCCCCCn1c(-c2cccnc2)nc(-c2ccc(C)cc2)c1-c1ccc(C)cc1 | cell growth or viability, SRB | 48 h |  | IC50 | > 100 µM
C[C@H](N)C(=O)N[C@@H](Cc1c[nH]c2ccccc12)C(=O)N[C@@H](CCC(N)=O)C(=O)N[C@@H](Cc1c[nH]c2ccccc12)C(=O)N[C@@H](CCCNC(=N)N)C(=O)N[C@@H](Cc1c[nH]c2ccccc12)C(=O)N[C@@H](CCC(N)=O)C(=O)N[C@@H](Cc1c[nH]c2ccccc12)C(=O)N[C@@H](CCCNC(=N)N)C(N)=O | MTT | concentration not given, 48 h, 37 °C, 5% FBS | relative to: untreated cells | viability | 51 ± 2%
NS(=O)(=O)c1ccc(Nc2nccc(-c3cn(C4CCCCC4)nn3)n2)cc1 | cell growth or viability, SRB | 72 h |  | IC50 | > 10 µM
Cc1c(C)c(C)[c-](C)c1C.[C-]#[O+].[C-]#[O+].[C-]#[O+].[Cl-].[Cl-].[Cl-].[Ir+3].[Re+].c1cnc(-c2ncccn2)nc1 | DCFDA flow cytometry | 25 µM |  | ROS-positive cells | 49.7%
C[C@H](NC(=O)[C@H](CCC(N)=O)NC(=O)[C@H](Cc1c[nH]c2ccccc12)NC(=O)[C@@H](N)CCCNC(=N)N)C(=O)N[C@@H](CCCNC(=N)N)C(=O)N[C@@H](Cc1c[nH]c2ccccc12)C(=O)N[C@@H](CCC(N)=O)C(=O)N[C@@H](Cc1c[nH]c2ccccc12)C(=O)N[C@@H](CCCNC(=N)N)C(N)=O | MTT | concentration not given, 24 h, 37 °C, 5% FBS | relative to: untreated cells | viability | 52 ± 1%
CCCCCCCCn1c(-c2cccnc2)nc(-c2ccccc2)c1-c1ccccc1 | cell growth or viability, SRB | 48 h |  | IC50 | 87.2 µM
CC(=O)N[C@@H](Cc1ccc(O)cc1)CN(CC(=O)N[C@@H](CCCCN)CN(CC(=O)N[C@@H](Cc1ccccc1)CN(CC(=O)N[C@H]1CCCCNc2c(F)c(F)c(c(F)c2F)S(=O)(=O)c2c(F)c(F)c(c(F)c2F)NCCCC[C@@H](CN(CC(=O)N[C@@H](C)CN(CC(N)=O)S(C)(=O)=O)S(C)(=O)=O)NC(=O)CN(S(=O)(=O)CC(C)C)C[C@H](CC(C)C)NC(=O)CN(S(=O)(=O)CCN)C1)S(=O)(=O)CC(C)C)S(=O)(=O)CCN)S(C)(=O)=O | cell growth or viability, CCK-8 | 72 h |  | GI50 | 5.63 µM

Some of these lines once more:
Structure (SMILES) | test | setting | how to read | measurement | result
C[C@H](N)C(=O)N[C@@H](Cc1c[nH]c2ccccc12)C(=O)N[C@@H](CCC(N)=O)C(=O)N[C@@H](Cc1c[nH]c2ccccc12)C(=O)N[C@@H](CCCNC(=N)N)C(=O)N[C@@H](Cc1c[nH]c2ccccc12)C(=O)N[C@@H](CCC(N)=O)C(=O)N[C@@H](Cc1c[nH]c2ccccc12)C(=O)N[C@@H](CCCNC(=N)N)C(N)=O | MTT | concentration not given, 48 h, 37 °C, 5% FBS | relative to: untreated cells | viability | 51 ± 2%
CC(=O)OC[C@H]1O[C@@H](Sc2sc(C(=O)c3ccc(Br)cc3)c(N)c2-c2nc3ccccc3s2)[C@H](OC(C)=O)[C@@H](OC(C)=O)[C@H]1OC(C)=O | SRB | 10 µM, 48 h | relative to: untreated | growth | 91.9%
CCCCCCCCC=CCCCCCCCCn1c(-c2cccnc2)nc(-c2ccc(C)cc2)c1-c1ccc(C)cc1 | cell growth or viability, SRB | 48 h |  | IC50 | > 100 µM
